Results of several laboratories.
Protocols differ between the studies behind these lines. “And” joins repeats or separate records; there may be more than shown. Numbers after ± are the reported error.

CC(C)(C)c1cc(C(C)(C)C)c(NC(=O)c2c[nH]c3ccccc3c2=O)cc1O
contraction amplitude (isolated rat colon; 1 nM to 10 µM): no effect

CC[C@H](C)[C@@H]([C@@H](CC(=O)N1CCC[C@H]1[C@H](OC)[C@@H](C)C(=O)N[C@H](C)[C@@H](O)c1ccccc1)OC)N(C)C(=O)[C@@H](NC(=O)[C@H](C(C)C)N(C)C(=O)OCc1ccc(NC(=O)[C@H](CCCNC(N)=O)NC(=O)[C@@H](NC(=O)CCOCCOCCOCCOCCC(=O)N[C@@H]2CSSC[C@H](C(=O)O)NC(=O)CNC(=O)[C@@H](CCCNC(=N)N)NC(=O)CNC(=O)[C@@H](C(C)C)NC(=O)CNC(=O)[C@@H](C)NC(=O)[C@@H](CCCNC(=N)N)NC2=O)C(C)C)cc1)C(C)C
primary tumour growth (BALB/c mice, orthotopic 4T1.2 breast tumour; dose not given; relative to: PBS): decreased

CC(c1cc2ccccc2s1)N(O)C(N)=O (centres unmarked)
amount (measured: 12-HEPE; human whole blood; 3 µM, added: Escherichia coli): 897 ± 388 pg/mL blood

COc1cc2cc(-c3ccc(CC(=O)Nc4cc(C(C)(C)C(F)(F)F)no4)cn3)cnc2cc1OC
disease control rate (RECIST v1.1; human RET-altered solid tumours; 12 75 mg tablets, phase I): 67%

C[C@@H](NC(=O)N1C(=O)[C@H](Cc2ccnc(N)c2)[C@H]1C(=O)O)C1CCCCC1
aPTT AUEC (human; iv infusion, 0.3 mg/kg/h, 24 h, unit not given; relative to: baseline): 173

Oc1c(Br)cc(Oc2ccc(Br)cc2Br)cc1Br
Vmax/Km (sulfonation; human liver cytosol): 47.8 ± 9.01 µL/min/mg

CC(C)[C@H](NC(=O)[C@H](Cc1ccc(O)cc1)NC(=O)[C@H](Cc1ccc(O)cc1)NC(=O)[C@@H]1CCCN1C(=O)[C@H](CCC(=O)O)NC(=O)[C@H](CCC(=O)O)NC(=O)[C@H](Cc1c[nH]c2ccccc12)NC(=O)[C@@H]1CCCN1C(=O)[C@@H](NC(=O)[C@H](CCC(N)=O)NC(=O)c1ccc2c(c1)C(=O)OC21c2ccc(O)cc2Oc2cc(O)ccc21)C(C)C)C(=O)N[C@H](C(=O)N[C@@H](CCCCN)C(=O)N[C@@H](CCCCN)C(=O)N[C@@H](CO)C(=O)N[C@@H](CO)C(=O)NCC(=O)NCC(N)=O)C(C)C
share of responses (surgeon confidence in nerve; human head and neck surgery, nerves; 500 mg, not improved; relative to: white light): 35.7%

N=C(N)NCCC[C@H](NC(=O)[C@H](CCCNC(=N)N)NC(=O)[C@H](CCCCN)NC(=O)[C@H](CCC(N)=O)NC(=O)[C@H](CCCCN)NC(=O)[C@H](Cc1ccc(O)cc1)NC(=O)[C@@H](N)CCCCN)C(=O)N[C@@H](CO)C(=O)N[C@@H](Cc1ccc(O)cc1)C(=O)N[C@@H](CCCCN)C(=O)O
median change in Schiff score (human, dentin hypersensitivity patients; topical to tooth, 5 µg/tooth repeated, day 36, phase 1/2a trial; direction not given): -1

C[C@H]1O[C@@H](O[C@H]2CC[C@@]3(C)[C@@H](CC[C@]4(C)[C@@H]3C=C[C@]35OC[C@@]6(CCC(C)(C)C[C@H]63)[C@@H](O)C[C@]54C)[C@]2(C)CO)[C@H](O)[C@@H](O[C@@H]2O[C@H](CO)[C@@H](O)[C@H](O)[C@H]2O)[C@H]1O
SIRT1 to β-actin ratio (Western blot; ethanol-fed mice, liver; dose not given, -M dose; relative to: control mice): 0.623 fold change and 0.851 fold change and 0.87 fold change

OC(CCN1CCCCC1)(c1ccccc1)C1CC2C=CC1C2 (centres unmarked)
change, Gamma power, EEG Pz-O1 (resting-state EEG; healthy elderly humans; oral, 4 mg, eyes open, LS mean; relative to: baseline): -2.8%

COc1nc(NCc2cn(-c3ccc(C(=O)Nc4ccc([N+](=O)[O-])cc4)cc3)nn2)nc(OC)n1
maximum non-toxic concentration (MTT; normal colonocytes, rat; 72 h): 3.35 ± 0.12 nM

N#Cc1ccn2c(-c3ccncc3)c(-c3ccc(F)cc3)nc2c1
log2 fold change (kinase binding, competitor, MIB/MS competition, measured: RTK1; Candida albicans cell lysate; 100 nM; relative to: DMSO): 0.0282

NC(=O)c1cnc2[nH]ccc2c1N[C@@H]1[C@@H]2CC3C[C@H]1C[C@@](O)(C3)C2
change from baseline (flow cytometry, measured: CD4+ naive T cells; Japanese healthy subjects, peripheral blood; oral, 30 mg twice daily, day 7): -1.37%

O=C(COc1ccc(Cl)cc1)NC12CC(c3nnc([C@H]4C[C@@H](OC(F)(F)F)C4)o3)(C1)C2
protein level change (measured: ATF4; PBMC ex vivo stimulated, human ALS patients; 100 mg, D21 predose; relative to: baseline): -59.3%

CCO[C@H]1CCN(Cc2c(OC)cc(C)c3[nH]ccc23)[C@H](c2ccc(C(=O)O)cc2)C1
PNH red cell clone size (measured: PNH-type erythrocytes; PNH patients, blood; 25 mg/100 mg, week 4, mean): 65.9%

C=C1CC[C@H](OCCCNC(=O)CCOCCOCCOCCOCCOCCOCCOCCOCCOCCOCCOCCOCCOCCOCCOCCOCCOCCOCCOCCOCCOCCOCCOCCOCCOCCOCCOCCOCCOCCOCCOCCOCCOCCOCCOCCOCCNC(=O)CCN2C(=O)CC(SC[C@H](NC(=O)[C@H](CCCNC(=N)N)NC(=O)[C@@H]3CCCN3C(=O)[C@H](CCC(N)=O)NC(=O)[C@H](CC(C)C)NC(=O)[C@H](CCCCN)NC(=O)[C@H](C)NC(=O)[C@@H]3CCCN3C(=O)[C@@H]3CCCN3C(=O)[C@H](CCCCN)NC(=O)[C@H](CCCCN)NC(=O)[C@H](CO)NC(=O)[C@H](CCC(=O)O)NC(=O)[C@H](CCCCN)NC(=O)[C@H](CCCNC(=N)N)NC(=O)[C@H](CCC(N)=O)NC(=O)[C@H](CCC(N)=O)NC(=O)[C@@H](NC(=O)[C@H](CCCNC(=N)N)NC(=O)[C@H](CCC(N)=O)NC(=O)[C@H](Cc3c[nH]cn3)NC(=O)[C@H](CCC(=O)O)NC(=O)[C@@H]3CCCN3C(=O)[C@H](CO)NC(=O)[C@H](CC(C)C)NC(=O)[C@H](Cc3ccccc3)NC(=O)[C@H](CNC(=O)CCCCCCC)NC(=O)[C@H](CO)NC(=O)CN)C(C)C)C(=O)O)C2=O)C/C1=C/C=C1\CCC[C@]2(C)[C@@H]([C@H](C)CCCC(C)(C)O)CC[C@@H]12 (some centres unmarked)
mRNA level (real-time RT-PCR, measured: Trim63; mice, LLC tumour-bearing, tibialis anterior; daily or every other day; relative to: tumour-bearing vehicle): decreased

COc1ccc(-c2cncc(N[C@@H](C)c3cccc(NC(=O)c4cncc(C)c4)c3)n2)cc1OC
fold change (measured: rno-miR-186-5p; rat SU5416/hypoxia model, lung; dose not given; relative to: SU5416/hypoxia vehicle): 1.08

Cc1cc([C@H]2C[C@H]3[C@@H](C)SC(N)=N[C@@]3(c3ccc(F)cc3F)CO2)on1
Aβ42 level (measured: Aβx-42; Mus musculus wild-type, brain; subcutaneous, 50 mg/kg, 3 h): 0.2 ng/g

CC(C)NCC(O)c1ccc(O)c(O)c1 (centres unmarked)
sarcomere length (ventricular cardiomyocytes, C57BL/6 mouse; dose not given, 0.704 s): 1.72 µm

Cc1cn(-c2cc(NC(=O)c3ccc(C)c(Nc4nccc(-c5cccnc5)n4)c3)cc(C(F)(F)F)c2)cn1
median difference in change (measured: amyloid beta 40; human, cerebrospinal fluid; dose not given, 12 months versus baseline, unit not given; relative to: placebo): -407

Cc1cc([C@H]2C[C@H]3[C@@H](CF)SC(N)=N[C@@]3(c3ccc(F)cc3F)CO2)on1
Aβ42 level (measured: Aβx-42; Mus musculus wild-type, brain; subcutaneous, 100 mg/kg, 14 h): 0.71 ng/g

Cc1sc2c(c1C)C(c1ccc(Cl)cc1)=N[C@@H](CC(=O)NCCCCCCCCNC(=O)COc1cccc3c1C(=O)N(C1CCC(=O)NC1=O)C3=O)c1nnc(C)n1-2 (some centres unmarked)
IFN-γ+ CD8+ T cells (flow cytometry; 4T1 tumour-bearing mice; dose not given): 0.61% and 0.31% and 0.27%

C[C@@H](Nc1cc(F)cc(F)c1)c1cc(C(=O)N(C)C)cc2c(=O)cc(N3CCOCC3)oc12
pPRAS40 H-score change (immunohistochemistry, measured: phospho-PRAS40; human, tumor biopsy; oral, 120 mg twice daily continuous, 336 h after first dose; relative to: baseline, direction not given): -49.7%

CC1(C)CCC(c2ccc(Cl)cc2)=C(CN2CCN(c3ccc(C(=O)NS(=O)(=O)c4ccc(N[C@H](CCN5CCOCC5)CSc5ccccc5)c(S(=O)(=O)C(F)(F)F)c4)cc3)CC2)C1
EC50 (cell killing; canine lymph node CD21+ B cells, dog 30; 24 h): 480 nM

CCCCC1(CCCC)CN(c2ccccc2)c2cc(SC)c(OCC(=O)N[C@@H](C(=O)NCC(=O)O)c3ccccc3)cc2S(=O)(=O)C1
plasma C4 (measured: 7α-hydroxy-4-cholesten-3-one; human, plasma; 20 mg once daily, day 11): 54.1 ng/mL

CC(C)c1nc(N(C)S(C)(=O)=O)nc(-c2ccc(F)cc2)c1/C=C/[C@@H](O)C[C@@H](O)CC(=O)O
triglycerides (human, HIV-infected, plasma; concentration not given, median after treatment): 1.9 mmol/L

NCC(=O)Nc1cncc(-c2nn3c(=O)cc(N4CCNCC4)nc3s2)c1
median inhibition (ADP-induced platelet aggregation, light transmission aggregometry; human, stable CAD on aspirin, platelets ex vivo; subcutaneous, 0.075 mg/kg, 30 min post-dose, added: ADP 20 µM): 85%

CCN1CCN(Cc2ccc(Nc3ncc(F)c(-c4cc(F)c5nc6n(c5c4)[C@H](C)CCC6)n3)nc2)CC1
median progression-free survival (human advanced solid tumours; 200 mg, phase Ia monotherapy RECIST 1.1): 5.8 months

Cc1cc(F)cc2c(CCC(=O)N[C@@H]3C(=O)NC[C@H]3O)c(-c3ccc(F)cc3)[nH]c12
urine albumin/creatinine ratio (APOL1 G2 mice, IFNγ-induced; 30 mg/kg twice daily, day 7): 2740 µg/mg and 15800 µg/mg and 15000 µg/mg and 1390 µg/mg and 9790 µg/mg

CN[C@@H]1COc2c(S(=O)(=O)NC(=O)Nc3c4c(cc5c3CCC5)CCC4)cnn2C1
inhibition (measured: IL-1β; human participants, whole blood ex vivo; 300 mg twice daily, multiple doses, 24 h, added: LPS/ATP; relative to: baseline): 95.7%

Cc1oncc1C(=O)Nc1ccc(C(F)(F)F)cc1
DHO concentration (measured: dihydroorotate; female CD-1 mice, blood; oral, 30 mg/kg daily, 8 h after dose 1): 17.8 ± 2.1 µM

CCN1[C@@H](C(=O)NC23CCC(C(=O)O)(CC2)CC3)[C@H](c2cccc(Cl)c2F)[C@]2(C(=O)Nc3cc(Cl)ccc32)C12CCCCC2
disease control rate (human, advanced solid tumours, TP53 wild type; dose not given, sample C patients, RECIST): 84.6%

C[C@H]1C[C@H]2CSC(N)=N[C@@]2(c2nc(NC(=O)c3ccc(OC(F)F)cn3)cs2)CO1
percent change from baseline (measured: Aβx-40; healthy adults, plasma; 200 mg single dose, 6 h post-dose; relative to: placebo): -65.1%

C[C@H](Oc1ccc(Br)cc1-c1ccon1)C(=O)O
difference from placebo (muscle velocity recovery cycle; human, tibialis anterior muscle; 600 mg once daily, first response peak at 30 Hz, multiple ascending dose): 13.4%

COc1cc(/C=C/C(=O)CC(=O)/C=C/c2ccc(O)c(OC)c2)ccc1O
body weight gain (rat, high-fat diet hyperlipaemia; oral, 200 mg/kg daily, 4 weeks): 71.5 ± 13.2 g

COc1nc(NCc2cn(-c3ccc(NC(=O)c4ccccc4)cc3)nn2)nc(OC)n1
maximum non-toxic concentration (MTT; normal colonocytes, rat; 72 h): 1.9 ± 0.26 nM

N#Cc1ccc2c(-c3ccncc3)c(-c3ccc(F)cc3)nn2c1
log2 fold change (kinase binding, competitor, MIB/MS competition, measured: SHA3; Candida albicans cell lysate; 10 µM; relative to: DMSO): -0.539

Cc1noc(C)c1-c1cc(C(O)(c2ccccn2)c2ccccn2)c2nc(C3CC3)[nH]c2c1
maximum induction (measured: HEXIM1 expression; human, peripheral blood; 9 mg, day 1, 1604 study): 54%

CC1(C)CCC2(CC1)N[C@@H](C(=O)N[C@@H]1CC[C@@H](C(N)=O)OC1)[C@H](c1ccnc(Cl)c1F)[C@]21C(=O)Nc2cc(Cl)ccc21
disease control rate (human, solid tumours; 60 mg/day, RECIST; relative to: patients): 33.3%

c1ccc(-c2n[nH]cc2-c2ccnc3ccccc23)nc1
log2 fold change (kinase binding, competitor, MIB/MS competition, measured: RIM11; Candida albicans cell lysate; 1 µM; relative to: DMSO): 1.39

Cc1cc(Nc2ncc(Cl)c(Nc3ccccc3S(=O)(=O)C(C)C)n2)c(OC(C)C)cc1C1CCNCC1
overall response rate (patients with advanced solid tumours; dose not given, arms 1 and 3, evaluable patients): 20%

COc1cc(-c2ccccc2)ncc1C(=O)Nc1ccc2c(=O)[nH]c(-c3ccc(C(C)(C)O)cc3)nc2c1
normalized enrichment score (RNA-seq GSEA, measured: HALLMARK_BILE_ACID_METABOLISM; organoids, small intestinal, Apc Q1405X, mouse; dose not given, 3 days, wild-type organoids; relative to: DMSO, direction not given): -1

N#Cc1ccc2c(c1)[C@H]1CCCN(C(=O)c3ccc4[nH]cnc4c3)[C@H]1C2
change in 1.5-AHG (human, plasma; 20 mg, day 15, 360 h; relative to: placebo and baseline): 0.5%

CC[C@@H](C)[C@@H](NC(=O)[C@@H](Cc1ccc(O)cc1)NC(=O)[C@H]1CCCN1C(=O)[C@@H](CCCNC(=N)N)NC(=O)[C@H](N)Cc1c[nH]cn1)C(=O)N[C@H](C)C(=O)N[C@H](Cc1c[nH]cn1)C(=O)N[C@H](CCCNC(=N)N)C(=O)N[C@@H](C(=O)N[C@H](Cc1ccc(O)cc1)C(=O)N[C@H](CO)C(=O)N[C@H](Cc1ccccc1)C(N)=O)C(C)C
IFN-γ+ CD8+ T cell frequency (ex vivo flow cytometry; B16 tumour-bearing mice, spleen; dose not given): 8.63% and 6.31% and 7.33% and 6.26% and 4.61%

O=C(O)CNC(=O)Cc1ccccc1
sarcomere length (ventricular cardiomyocytes, C57BL/6 mouse; dose not given, 0.676 s): 1.72 µm

CC(CCc1ccc(O)cc1)NCCc1ccc(O)c(O)c1 (centres unmarked)
dP/dtmax change (anaesthetised rat; intravenous infusion, 1 µg/kg/min for 15 min; relative to: baseline): 17.1%

CC[C@H](CO)Nc1nc(NCc2ccc(-c3ccccn3)cc2)c2ncn(C(C)C)c2n1
CK1ε protein level (NOD scid gamma mouse, IMR-32 xenograft, tumour; ip, dose not given, daily dosing): decreased
